Assay results collected from several papers.
Parts stem from different laboratories: compare values within a part only. Positions count from the first letter of the parent shown.

Set 1
Target: Sal-like protein 4, full length isoform A (SALL4, Homo sapiens, UniProt Q9UJQ4, residues 1-1053)
Sequence of UniProt Q9UJQ4 (whole entry, looked up): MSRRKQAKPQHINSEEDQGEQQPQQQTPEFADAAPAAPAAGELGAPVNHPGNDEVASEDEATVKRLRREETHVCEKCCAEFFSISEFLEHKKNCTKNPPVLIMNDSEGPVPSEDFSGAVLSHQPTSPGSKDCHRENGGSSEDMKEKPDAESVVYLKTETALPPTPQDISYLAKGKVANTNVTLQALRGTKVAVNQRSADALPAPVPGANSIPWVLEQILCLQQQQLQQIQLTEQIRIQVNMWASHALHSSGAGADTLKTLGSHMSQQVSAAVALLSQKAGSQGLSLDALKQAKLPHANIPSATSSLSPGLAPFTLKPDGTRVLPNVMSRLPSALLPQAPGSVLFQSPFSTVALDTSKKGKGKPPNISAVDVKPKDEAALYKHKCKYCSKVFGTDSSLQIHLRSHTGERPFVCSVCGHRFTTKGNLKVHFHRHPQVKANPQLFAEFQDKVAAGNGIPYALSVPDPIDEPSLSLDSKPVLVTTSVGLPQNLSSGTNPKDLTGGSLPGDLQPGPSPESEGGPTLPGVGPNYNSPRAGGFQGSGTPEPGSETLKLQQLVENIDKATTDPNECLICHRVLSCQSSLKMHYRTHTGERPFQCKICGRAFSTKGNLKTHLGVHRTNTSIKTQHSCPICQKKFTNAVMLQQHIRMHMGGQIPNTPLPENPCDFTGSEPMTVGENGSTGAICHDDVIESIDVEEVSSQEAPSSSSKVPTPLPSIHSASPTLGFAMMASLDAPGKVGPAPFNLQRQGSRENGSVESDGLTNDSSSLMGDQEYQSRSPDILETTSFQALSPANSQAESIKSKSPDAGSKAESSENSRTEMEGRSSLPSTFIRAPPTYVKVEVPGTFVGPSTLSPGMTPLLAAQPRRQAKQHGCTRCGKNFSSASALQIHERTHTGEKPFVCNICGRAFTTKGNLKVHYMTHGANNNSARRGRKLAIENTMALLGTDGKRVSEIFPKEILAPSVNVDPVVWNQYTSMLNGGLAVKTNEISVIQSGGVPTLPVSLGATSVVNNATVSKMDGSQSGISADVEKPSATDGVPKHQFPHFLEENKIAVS
Method: universal PBM
Molecule type: double-stranded DNA, one strand shown
Medium: in vitro
Concentration: 600 nM
Notes: 8-mer, flanks averaged, mean of replicates
Reading: higher = stronger binding
For `CAGCACCC`, the E-score was -0.285.
For `ATAGCAGC`, the E-score was -0.0778.
For `GGTCCGAC`, the E-score was -0.33.
`CATGCAGG` gave an E-score of -0.214.
The E-score of `CGTCAGTC` is reported as -0.147.
`AACATGCC` gave an E-score of -0.109.
The E-score of `AATCTTAG` is reported as 0.046.
For `ATGTGGGC`, the E-score was -0.042.
`ACTAAGAC` gave an E-score of -0.018.
`GATATCGA` gave an E-score of 0.16.
`ATGCAGCG` has an E-score of -0.168.
`AGTGCTAG` has an E-score of -0.0435.
For `GGGGAACC`, the E-score was -0.321.
For `CATGGCAG`, the E-score was -0.0337.

Set 2
Target: Interferon regulatory factor 7, full length, phosphomimetic (IRF7, Homo sapiens, UniProt Q92985, residues 1-503, S101K/S471D/S472D/S475D/S476D/S477D/S483D/S484D/S487D)
Method: protein-binding microarray
Molecule type: double-stranded DNA, one strand shown
Medium: in vitro
Concentration: 250 nM
Notes: 60-bp whole probe
With: salmon DNA 0.4 mg/ml
Baseline: random background probes
Reading: higher = stronger binding
Constant ends, left off below: GCCTAGCAC … GTGCTAGGTCTTGATTCGCTTGACGCTGCTG
Residues (chain): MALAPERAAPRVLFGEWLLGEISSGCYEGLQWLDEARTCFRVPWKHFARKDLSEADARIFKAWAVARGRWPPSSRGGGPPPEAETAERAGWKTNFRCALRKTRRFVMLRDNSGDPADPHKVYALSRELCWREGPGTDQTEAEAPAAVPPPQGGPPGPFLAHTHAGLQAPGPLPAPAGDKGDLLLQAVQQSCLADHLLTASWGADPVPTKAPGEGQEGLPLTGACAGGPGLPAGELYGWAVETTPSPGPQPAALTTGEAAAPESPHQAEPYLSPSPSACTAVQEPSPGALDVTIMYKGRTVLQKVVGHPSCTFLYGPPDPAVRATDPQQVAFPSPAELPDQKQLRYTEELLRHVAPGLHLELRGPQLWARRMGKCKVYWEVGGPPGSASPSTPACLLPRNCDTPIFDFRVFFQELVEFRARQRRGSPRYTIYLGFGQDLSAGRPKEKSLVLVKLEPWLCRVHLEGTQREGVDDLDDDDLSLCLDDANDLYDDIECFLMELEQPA
`TTAGATCCCAGTATCGATTA` has a log fluorescence of 1.18 z-score.
`TCAACTCTCTGCTTGTGACT` has a log fluorescence of -0.154 z-score.
With `TTAGACTTCAGTCTCGATTA` the log fluorescence was 1.59 z-score.
`TTAGAAATTTCTTTCTAATT` has a log fluorescence of 0.427 z-score.
`CCAGGCTGAAAGACCTCTGA` gave a log fluorescence of -0.752 z-score.
With `TTAGGTCTCCTTCTCCTATA` the log fluorescence was 1.05 z-score.
With `GACCGTTTCGGTCTCGGGAC` the log fluorescence was 4.26 z-score.
The log fluorescence of `TCATTCCTAATTCTCTTACT` is reported as 2.16 z-score.
`TCACTTATCCTATCAGTACT` has a log fluorescence of 0.957 z-score.

Set 3
Target: CCNA1, cyclin fold, Cln2 fusion (human)
Method: yeast growth competition, sequencing
Medium: yeast
Notes: weak parent motif
Baseline: not given
Reading: higher = stronger binding
Starting sequence: CDC25A docking peptide (human); PPHRRRLLFACSP; partner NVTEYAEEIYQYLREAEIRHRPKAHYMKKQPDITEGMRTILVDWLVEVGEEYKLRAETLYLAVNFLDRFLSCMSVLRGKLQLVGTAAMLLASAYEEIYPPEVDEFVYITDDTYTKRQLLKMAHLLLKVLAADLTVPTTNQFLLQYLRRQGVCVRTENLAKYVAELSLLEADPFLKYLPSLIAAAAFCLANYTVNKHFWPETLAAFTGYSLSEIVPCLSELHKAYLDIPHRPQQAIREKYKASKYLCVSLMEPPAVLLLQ
`F9L` — result for “normalised enrichment score”: 0.264.
`P1C`: “normalised enrichment score” -0.0239.
Under “normalised enrichment score”, `H3D` is recorded as 0.41.
`H3P` — result for “normalised enrichment score”: -0.0294.
`R6D`: “normalised enrichment score” 0.132.
For `R5H`, “normalised enrichment score” read 0.301.

Mixed results
With `PhoQ, residues 284 288 289 292 302 303 AGCYAI` the fold induction was 5.84 (PhoP, residues 12 14 15 18 19 AQALL (Escherichia coli, UniProt P23836); Sort-seq, item: YFP reporter; E. coli; PhoQ-PhoP variant library, with: 10 µM Mg2+; baseline: high Mg2+ state, higher = stronger signaling).

A few entries again (set 2):
With `TTAGGTCTCCTTCTCCTATA` the log fluorescence was 1.05 z-score.
With `GACCGTTTCGGTCTCGGGAC` the log fluorescence was 4.26 z-score.
The log fluorescence of `TCATTCCTAATTCTCTTACT` is reported as 2.16 z-score.
`TCACTTATCCTATCAGTACT` has a log fluorescence of 0.957 z-score.
